# Published values gathered from unrelated publications.
# Each line is one published result; not all experiments were run side by side. Several values in a cell are separate wells, animals, samples, runs or records. ± marks the error that the study gave.
# UniProt P20813, sequence (whole entry, looked up): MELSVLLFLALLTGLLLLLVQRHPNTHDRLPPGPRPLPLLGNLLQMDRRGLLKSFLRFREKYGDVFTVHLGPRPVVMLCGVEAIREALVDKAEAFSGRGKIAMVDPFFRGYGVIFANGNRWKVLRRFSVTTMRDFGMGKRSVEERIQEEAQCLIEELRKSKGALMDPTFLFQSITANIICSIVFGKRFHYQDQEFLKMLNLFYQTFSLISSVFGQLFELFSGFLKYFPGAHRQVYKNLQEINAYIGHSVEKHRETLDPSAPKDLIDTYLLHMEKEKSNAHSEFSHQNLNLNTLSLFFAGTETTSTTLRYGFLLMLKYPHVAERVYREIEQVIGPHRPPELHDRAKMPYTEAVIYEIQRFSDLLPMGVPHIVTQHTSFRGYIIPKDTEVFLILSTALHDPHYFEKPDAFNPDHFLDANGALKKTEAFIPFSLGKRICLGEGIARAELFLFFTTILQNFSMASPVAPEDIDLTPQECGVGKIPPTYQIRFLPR
Compound,tested on,assay,system,setting,how to read,endpoint,value
CCN(CC)CC#CCNc1ccnc2cc(Cl)ccc12,Salmonella typhimurium,mini-Ames test,TA98,"125.0 µg/well, without S9",,mean revertants,6 revertants/well
CC(C)OCCOCc1ccc(OCC(O)CN(N=O)C(C)C)cc1 (stereo not drawn),Salmonella typhimurium,Ames test,TA1537,"500 µg/plate, without metabolic activation",reference: solvent control,revertant fold increase,0.8 fold
CCCCNC(CCCC)CSS(=O)(=O)O (stereo not drawn),Schistosoma mansoni,perfusion day 62,infected Swiss Webster mice,100 mg/kg,,body weight,28.7 g and 30 g and 33 g
C=C(NC(=O)c1csc(-c2nc3c(cc2O)-c2nc(cs2)C(=O)NC(C(C)O)C(=O)NC(=C(C)OC)c2nc(cs2)C(=O)NC2c4nc(cs4)C(=O)NC(COC(=O)c4c5c6c(cccc6n4O)COC(=O)C(OC4CC(C)(O)C(N(C)C)C(C)O4)C2OC5)c2nc-3cs2)n1)C(N)=O (stereo not drawn),,,"cynomolgus monkey, plasma","intravenous, infusion",,clearance,2.62 mL/min/kg
Cc1cc(=O)c2c(O)c3c(O[C@@H]4O[C@H](CO)[C@@H](O)[C@H](O)[C@H]4O)cc(O)cc3cc2o1,HK-2 co-cultured with HepaRG,MTT,,"133.33 µM, 48 h",reference: untreated control,cell viability,71.1 ± 9.69%
O=C1NC2(CC2)COc2ncc(F)cc2[C@H]2COCCN2c2ccn3ncc1c3n2,Salmonella typhimurium,Ames test,TA1535,"50 µg/plate, 48 h, added: rat liver S9",,revertant colonies,10 ± 3 revertants/plate
N#C[C@@H]1CC(F)(F)CN1C(=O)CNC(=O)c1ccnc2c(NC(=O)[C@H](CCCCNC(=O)CCOCCOCCOCCOCCOCCOCCNC(=O)CN3CCN(CC(=O)[O-])CCN(CC(=O)[O-])CCN(CC(=O)[O-])CC3)NC(=O)CCCc3ccc(I)cc3)cccc12.[177Lu+3],U-87 MG tumour model,,"host not given, liver","1 h, tumour-bearing",,tracer uptake,7.12 %ID/g
CCCC[C@@H](CSS(=O)(=O)O)NC1CCCCC1,Schistosoma mansoni,perfusion day 57,infected Swiss Webster mice,100 mg/kg,,body weight,34.3 g and 35 g and 31 g
CNC(=O)C1CCCN(C(=O)C2CC3CCC2N3C(=O)[C@@H]2C[C@@H](O)CN2C(=O)NCc2cccc(Cl)c2F)C1 (mixture of isomers),"Cytochrome P450 2B6 (CYP2B6, Homo sapiens, UniProt P20813)",preincubation with NADPH,human,5.56 µM,reference: negative control,remaining activity,104% and 89.7%
O=C1C2CC3CC1CC(C(=O)N1CCN(c4ccc([N+](=O)[O-])c5ncccc45)CC1)(C3)C2,Salmonella typhimurium,Ames test,TA1535,"0.31 µg/well, with S9",reference: vehicle,revertant fold increase,1.8
COC(=O)Nc1nc2cc(C(O)c3ccc(F)cc3)ccc2[nH]1 (stereo not drawn),Salmonella typhimurium,Ames preincubation test,TA98,"437.5 µg/plate, without S9",,revertants,19.7 revertants/plate
N#C[C@@H]1CCCN1C(=O)CNC(=O)c1ccnc2ccc(OCCCN3CCN(C(=O)CCc4ccc5c(c4)CN4CCN6CC(=O)[O][68Ga-]([O]C(=O)C4)([O]5)[O]c4ccc(CCC(=O)N5CCN(CCCOc7ccc8nccc(C(=O)NCC(=O)N9CCC[C@H]9C#N)c8c7)CC5)cc4C6)CC3)cc12,U-87 MG tumour model,,"host not given, blood","2 h, tumour-bearing",,tracer uptake,3.54 %ID/g

# Some of these lines once more:
Compound,tested on,assay,system,setting,how to read,endpoint,value
CC(C)OCCOCc1ccc(OCC(O)CN(N=O)C(C)C)cc1 (stereo not drawn),Salmonella typhimurium,Ames test,TA1537,"500 µg/plate, without metabolic activation",reference: solvent control,revertant fold increase,0.8 fold
